Assay results pooled from the literature.
Compare with care: the assays were run in different laboratories. Several values in a cell are separate wells, animals, samples, runs or records. ± gives the spread as reported.

The GI50 of `O=C(/C=C/C=C/C=C/C1CCCCC1)NC1=C[C@@](O)(/C=C/C=C/C=C/C(=O)NC2=C(O)CCC2=O)[C@@H]2O[C@@H]2C1=O` is reported as 17.4 µM (OMM-1; cell growth, CellTiter-Glo; 78 h).
For `CCn1cc(-c2cc(Cn3ccnc3)cc3c2CCN([C@H](c2cc(OC)ccn2)C2CC2)C3=O)c(C(F)(F)F)n1`, the EC50 was 8 µM (SNU668; cell growth, inhibitor; 120 h).
`O=P1(C2CCCCC2)CCCCC1`: “reduction of cell number” 67% (PC-3; trypan blue; IC50, 72 h; relative to: untreated).
For `CC1(C)Oc2ccc(CC3=C(c4ccc(O)cc4)C(=O)OC3=O)cc2CC1O` (centres unmarked), “IL-6 mRNA level” read “no effect” (RPTEC; qPCR; 10 µg/mL, 24 h, basal, no LPS; relative to: untreated).
With `CC(C)C[C@@H](C=O)NC(=O)[C@H](CC(C)C)NC(=O)[C@H](CC(C)C)NC(=O)OCc1ccccc1` the inhibition was 93.2% (BT-16; cell viability, MTT; 10 µM, 72 h).
With `CC(C)NCC(O)c1ccc(O)c(O)c1` (centres unmarked) the sarcomere length was 1.59 µm (mouse ventricular cardiomyocytes; dose not given, 0.144 s).
The fold change of `C=Cc1c2[n-]c(c1C)/C=c1\[n-]/c(c(C)c1C=C)=C\c1[n-]c(c(CCC(=O)O)c1C)/C=c1\[n-]c(c(C)c1CCC(=O)O)=C2.[Sn+4]` is reported as 1.72 (SH-SY5Y; RNA-seq, measured: CREB5 mRNA; 5 µM, 5 h; relative to: untreated cells).
For `Cc1nn(-c2nc3ccc(Cl)c(Cl)c3[nH]2)c(O)c1C1OC(=O)c2ccccc21` (centres unmarked), the inhibition was -5.9% and -10.5% and -2.08% and -0.253% and 6.11% and -4.27% (RAW-ISG; IFN luciferase reporter; 0.625 µM, added: HT-DNA).
`Cc1cc(Nc2ncc(Cl)c(Nc3ccccc3S(=O)(=O)C(C)C)n2)c(OC(C)C)cc1C1CCNCC1` has an inhibition of 93.3% (BT-16; cell viability, MTT; 10 µM, 72 h).
For `Nc1cccc2c1C(=O)N(C1CCC(=O)NC1=O)C2=O` (centres unmarked), “surface marker level” read 215% (RPMI-8226; flow cytometry, measured: CD267; concentration not given; relative to: comparator compound alone).
`N#Cc1ccc2nc(Nc3ccc(N4CCOCC4)c(Cl)c3)[nH]c2c1` gave a median TGI of 17.8 µM (NCI-60 cancer cell panel; cell growth).
For `CCN(CCO)CCCC(C)Nc1ccnc2cc(Cl)ccc12` (centres unmarked), the inhibition was 4 ± 19% (human PBMC; qRT-PCR, measured: IFI44 mRNA; 1000 nM, added: ssRNA).
With `Cc1ccc(S(=O)(=O)/C=C/C#N)cc1` the inhibition was 93.2% (BT-16; cell viability, MTT; 10 µM, 72 h).
`Cn1cc(-c2ccc(-c3cncc(Cl)c3N3CCC4(CCNC4=O)CC3)cc2)cn1` — result for “log2 fold change”: 1.88 (COLO 205; gene expression, microarray, measured: RPL37 mRNA; concentration not given, 6 h; relative to: untreated cells).
For `COc1cc2ncnc(Nc3ccc(Oc4ccccc4)cc3C)c2cc1OC.O=C(O)C(F)(F)F`, “Bliss synergy score” read 146% (MeWo (NF1 mutant); cell viability; concentration not given, 72 h, added: trametinib; direction not given).
With `COc1cnc2cccc(N3CCc4c(cc(Cn5ccnc5C)cc4-c4cn(C)nc4C(F)(F)F)C3=O)c2c1` the EC50 was greater than 30 µM (LoVo; cell growth, inhibitor; 120 h).
For `Cl.Cl.NCCNS(=O)(=O)c1ccc(Cl)c2ccncc12`, “relative cell number” read 98.1% (SK-OV-3; ATP; 3D gellan gum culture; 1 µM, 4 days; relative to: untreated).
`O=c1[nH]nc(OCCCc2ccc(Cl)cc2)c(NCc2cccnc2)c1Br`: “normalized enrichment score” -0.844 (HEK-293T; RNA-seq GSEA, measured: Hallmark apical surface; concentration not given; direction not given).
`CCCCN1C[C@H](O)[C@@H](O)[C@@H](O)[C@H]1CO` has an IC50 of 32.5 µM (sample BA patient fibroblasts; Gb3 level lowering, LC-MS/MS, measured: Gb3 d18:1/22:0; 216 h).
`COc1ccc(C[C@H](N)C(=O)N[C@H]2[C@@H](O)[C@H](n3cnc4c(N(C)C)ncnc43)O[C@@H]2CO)cc1.Cl.Cl` has an inhibition of 93.8% (BT-16; cell viability, MTT; 10 µM, 72 h).

Some of these lines once more:
For `Nc1cccc2c1C(=O)N(C1CCC(=O)NC1=O)C2=O` (centres unmarked), “surface marker level” read 215% (RPMI-8226; flow cytometry, measured: CD267; concentration not given; relative to: comparator compound alone).
`N#Cc1ccc2nc(Nc3ccc(N4CCOCC4)c(Cl)c3)[nH]c2c1` gave a median TGI of 17.8 µM (NCI-60 cancer cell panel; cell growth).
For `CCN(CCO)CCCC(C)Nc1ccnc2cc(Cl)ccc12` (centres unmarked), the inhibition was 4 ± 19% (human PBMC; qRT-PCR, measured: IFI44 mRNA; 1000 nM, added: ssRNA).
